Results from different studies.

N=C(N)NCCC[C@H](NC(=O)[C@H](CCCNC(=N)N)NC(=O)[C@H](Cc1ccccc1)NC(=O)[C@H](CO)NC(=O)[C@H](Cc1ccccc1)NC(=O)[C@H](Cc1c[nH]c2ccccc12)NC(=O)[C@H](Cc1ccccc1)NC(=O)[C@H](CO)NC(=O)[C@H](Cc1ccccc1)NC(=O)[C@H](CCCNC(=N)N)NC(=O)[C@@H](N)CCCNC(=N)N)C(N)=O — MIC (Lactiplantibacillus plantarum; 7469, probiotic strain; 24 h, 37 °C, tested up to 128 µM): 128 µM
CC[C@H](C)[C@H](NC(=O)[C@H](C)NC(=O)CNC(=O)[C@H](C)NC(=O)[C@H](CCCCN)NC(=O)[C@H](CO)NC(=O)[C@H](C)NC(=O)[C@H](CCSC)NC(=O)CN)C(=O)N[C@@H](C)C(=O)NCC(=O)N[C@@H](CCCCN)C(=O)N[C@H](C(=O)N[C@@H](C)C(=O)N[C@@H](CCCCN)C(=O)N[C@H](C(=O)N[C@@H](C)C(=O)N[C@@H](CC(C)C)C(=O)N[C@@H](CCCCN)C(=O)N[C@@H](C)C(=O)N[C@@H](CC(C)C)C(N)=O)C(C)C)[C@@H](C)CC — MIC (Escherichia coli; 3538, ampicillin-resistant, minimal salts medium; 18 h, 37 °C): 10 µg/mL
CC[C@H](C)[C@H](NC(=O)[C@H](CCCCN)NC(=O)[C@H](CCCCN)NC(=O)[C@H](Cc1ccccc1)NC(=O)[C@H](Cc1ccccc1)NC(=O)[C@H](CCCCN)NC(=O)[C@H](CCCCN)NC(=O)[C@H](Cc1ccccc1)NC(=O)[C@H](CCCNC(=N)N)NC(=O)[C@@H](N)CCCCN)C(=O)N[C@@H](CCCCN)C(=O)N[C@@H](CCCCN)C(=O)N[C@@H](CO)C(=O)N[C@H](C(=O)N[C@@H](CCCCN)C(=O)N[C@@H](CCCCN)C(=O)N[C@@H](CCCNC(=N)N)C(=O)N[C@H](C(=O)N[C@@H](CCCCN)C(=O)N[C@@H](CCCCN)C(=O)N[C@@H](CC(C)C)C(=O)N[C@@H](Cc1ccccc1)C(=O)N[C@@H](CCCCN)C(=O)N[C@@H](CCCCN)C(=O)N1CCC[C@H]1C(=O)N[C@@H](CCCNC(=N)N)C(=O)N[C@H](C(=O)N[C@H](C(=O)N1CCC[C@H]1C(=O)N[C@H](C(=O)N[C@@H](CO)C(=O)N[C@H](C(=O)N1CCC[C@H]1C(=O)N[C@@H](Cc1ccccc1)C(=O)O)[C@@H](C)CC)[C@@H](C)CC)[C@@H](C)CC)C(C)C)C(C)C)C(C)C — MIC (Escherichia coli; broth microdilution; E25 clinical isolate; 20 h): 4 µg/mL
CC(C)CCCCCCCCC/C=C/C(=O)N[C@@H](CC(=O)O)C(=O)N[C@H]1CNC(=O)[C@@H]2CCCN2C(=O)[C@H](C(C)C)NC(=O)[C@@H](CN)NC(=O)CNC(=O)[C@H](CC(=O)O)NC(=O)CNC(=O)[C@H](CC(=O)O)NC(=O)[C@H](CC(=O)O)NC(=O)[C@H]2CCCCN2C1=O — MIC (Enterococcus faecium; broth microdilution; daptomycin-resistant isolate, Mueller-Hinton broth, Mg2+ 10 mg/L; 16 h, added: Ca2+ 0 mM): > 128 µg/mL
CN[C@H](CC(C)C)C(=O)N[C@H]1C(=O)N[C@@H](CC(N)=O)C(=O)N[C@H]2C(=O)N[C@H]3C(=O)N[C@H](C(=O)N[C@H](C(=O)O)c4cc(O)cc(O)c4-c4cc3ccc4O)[C@H](O)c3ccc(c(Cl)c3)Oc3cc2cc(c3O[C@@H]2O[C@H](CO)[C@@H](O)[C@H](O)[C@H]2O[C@H]2C[C@](C)(NCc3ccc(OCc4cn(CC(=O)N[C@H](C(=O)N[C@@H](CCN)C(=O)N[C@H]5CCNC(=O)[C@H]([C@@H](C)O)NC(=O)[C@H](CCN)NC(=O)[C@H](CCN)NC(=O)[C@H](CC(C)C)NC(=O)[C@@H](CC(C)C)NC(=O)[C@H](CCN)NC5=O)[C@@H](C)O)nn4)c(OC)c3)[C@H](O)[C@H](C)O2)Oc2ccc(cc2Cl)[C@H]1O — MIC (Enterococcus faecium; VRE vanB): 0.76 µM
CCCCCCCCCCCCCC(=O)N[C@H]1C(=O)N[C@@H](CN)C(=O)N[C@@H](CO)C(=O)N[C@@H](Cc2ccc(O)cc2)C(=O)O[C@H]1C — MIC (Staphylococcus aureus; SH1000; added: phosphatidylglycerol, molar ratio 0.5): 2 µg/mL
CC1(C)S[C@@H]2[C@H](NC(=O)[C@H](NC(=O)C3=C(O)C(c4ccccc4F)NC3=O)c3ccccc3)C(=O)N2[C@H]1C(=O)O (stereo partly shown) — MIC (Escherichia coli; broth microdilution; Keio mutant JW0587-1; 18 h, enterobactin-related gene): 25 µg/mL
C[N+]1=C2C(c3ccc([N+](=O)[O-])cc3)=[N+]([O-])c3ccccc3N2CCC1 — MIC (Prevotella spp.): 0.06 to 2 µg/mL
CC(=O)N[C@@H](CC(C)C)C(=O)N[C@H]1CSSC[C@@H](C(=O)N2CCC[C@H]2C(N)=O)NC(=O)[C@H]([C@@H](C)O)NC(=O)[C@H](C(C)C)NC(=O)[C@H]([C@@H](C)O)NC(=O)CNC(=O)[C@H](CC(C)C)NC(=O)[C@H](Cc2ccccc2)NC(=O)[C@H](Cc2ccc(O)cc2)NC(=O)[C@H](CC(C)C)NC(=O)[C@H](CCCCN)NC(=O)[C@H](Cc2ccccc2)NC(=O)[C@H](CCCNC(=N)N)NC(=O)[C@H](CCC(N)=O)NC(=O)[C@H](CC(C)C)NC(=O)[C@H](CCCCN)NC(=O)[C@@H]2CCCN2C(=O)[C@H](CCCCN)NC(=O)[C@H](C(C)C)NC(=O)[C@H](CCCCN)NC(=O)[C@H](Cc2ccc(O)cc2)NC(=O)[C@H]([C@@H](C)O)NC1=O — MIC (Pseudomonas fluorescens; broth dilution; CGMCC strain; 24 h): 2.5 to 5 µM
CC[C@H](C)[C@@H]1NC(=O)[C@H](CC(C)C)NC(=O)[C@@H](NC(=O)[C@H](CCC(N)=O)NC(=O)[C@H](CCCCN)NC(=O)[C@H](CC(N)=O)NC(=O)[C@H](Cc2ccc(O)cc2)NC(=O)[C@@H]2CCC(=O)NCC(=O)NCC(=O)NCC(=O)NCC(=O)N[C@@H](CCCNC(=N)N)C(=O)NCC(=O)N[C@@H](Cc3ccc(O)cc3)C(=O)N2)CSSC[C@@H](C(=O)O)NC(=O)[C@H](Cc2ccccc2)NC1=O — MIC (Streptococcus pyogenes; broth microdilution; sensitive clinical isolate; overnight, 37 °C): > 128 µg/mL
[O-][N+]1=C(c2ccc(Cl)cc2)C2=NCCCCN2c2ccccc21 — MIC (Prevotella spp.): 0.125 to 0.5 µg/mL
OB(O)c1cnn(-c2cc(Cl)ncn2)c1 — MIC (Enterobacter cloacae; bacterial growth; AmpC overproducer clinical isolate; without cefotaxime): 1020 µg/mL
CC(C)C[C@H](NC(=O)[C@H](CCCCN)NC(=O)[C@H](C)NC(=O)[C@H](CC(C)C)NC(=O)[C@H](CCCCN)NC(=O)[C@H](CCC(N)=O)NC(=O)[C@H](CCCCN)NC(=O)[C@H](CC(C)C)NC(=O)[C@H](CCCCN)NC(=O)[C@H](CCC(N)=O)NC(=O)[C@H](CC(C)C)NC(=O)[C@H](CCCCN)NC(=O)[C@H](C)NC(=O)[C@H](CCCCN)NC(=O)[C@H](CC(C)C)NC(=O)[C@H](CCCCN)NC(=O)[C@H](C)NC(=O)[C@H](CC(C)C)NC(=O)[C@H](CCCCN)NC(=O)[C@H](CCC(N)=O)NC(=O)[C@@H](N)CCCCN)C(N)=O — MIC (Salmonella enterica; broth microdilution; ATCC 700720; 24 h): 6.2 µM
CC(=O)N[C@@H](CC(C)C)C(=O)N[C@H]1CSSC[C@@H](C(=O)N2CCC[C@H]2C(N)=O)NC(=O)[C@H]([C@@H](C)O)NC(=O)[C@H](C(C)C)NC(=O)[C@H]([C@@H](C)O)NC(=O)CNC(=O)[C@H](CC(C)C)NC(=O)[C@H](Cc2ccccc2)NC(=O)[C@H](Cc2ccc(O)cc2)NC(=O)[C@H](CC(C)C)NC(=O)[C@H](CCCCN)NC(=O)[C@H](Cc2ccccc2)NC(=O)[C@H](CCCNC(=N)N)NC(=O)[C@H](CCC(N)=O)NC(=O)[C@H](CC(C)C)NC(=O)[C@H](CCCCN)NC(=O)[C@@H]2CCCN2C(=O)[C@H](CCCCN)NC(=O)[C@H](C(C)C)NC(=O)[C@H](CC(N)=O)NC(=O)[C@H](Cc2ccc(O)cc2)NC(=O)[C@H]([C@@H](C)O)NC1=O — MIC (Pseudomonas fluorescens; broth dilution; CGMCC strain; 24 h): 5 to 10 µM
CC[C@H](C)[C@H](NC(=O)[C@H](CCCNC(=N)N)NC(=O)[C@H](CO)NC(=O)[C@H](Cc1ccc(O)cc1)NC(=O)[C@@H](NC(=O)[C@@H](NC(=O)[C@H](C)NC(=O)CNC(=O)[C@H](CCCCN)NC(=O)[C@H](CCCCN)NC(=O)CCNC(=O)CCCCCNC(=O)[C@H](CCCNC(=N)N)NC(=O)CCCCCNC(=O)[C@H](CCCNC(=N)N)NC(=O)[C@H](CCCNC(=N)N)NC(=O)CCCCCNC(=O)[C@H](CCCNC(=N)N)NC(=O)[C@H](CCCNC(=N)N)NC(=O)CCCCCNC(=O)[C@H](CCCNC(=N)N)NC(=O)[C@H](CCCNC(=N)N)NC(=O)CCCCCNC(=O)[C@@H](N)CCCNC(=N)N)C(C)C)[C@@H](C)O)C(=O)N[C@@H](CO)C(=O)NCC(=O)N[C@@H](CCC(N)=O)C(=O)N[C@@H](Cc1ccc(O)cc1)C(=O)N[C@@H](CCCCN)C(=O)O — MIC (Escherichia coli; ATCC 25922, Mueller-Hinton broth; added: ZnCl2 8 µM): 6 µM
CC(C)CCCCCCCCC/C=C/C(=O)N[C@@H](CC(N)=O)C(=O)N[C@H]1CNC(=O)[C@@H]2CCCN2C(=O)[C@H](C(C)C)NC(=O)[C@@H](CN)NC(=O)CNC(=O)[C@H](CC(=O)O)NC(=O)CNC(=O)[C@H](CC(=O)O)NC(=O)[C@H](CC(=O)O)NC(=O)[C@H]2CCCCN2C1=O — MIC (Enterococcus faecium; broth microdilution; daptomycin-resistant isolate, Mueller-Hinton broth, Mg2+ 10 mg/L; 16 h, added: Ca2+ 5 mM): 2 µg/mL

A few entries again:
CC(C)C[C@H](NC(=O)[C@H](CCCCN)NC(=O)[C@H](C)NC(=O)[C@H](CC(C)C)NC(=O)[C@H](CCCCN)NC(=O)[C@H](CCC(N)=O)NC(=O)[C@H](CCCCN)NC(=O)[C@H](CC(C)C)NC(=O)[C@H](CCCCN)NC(=O)[C@H](CCC(N)=O)NC(=O)[C@H](CC(C)C)NC(=O)[C@H](CCCCN)NC(=O)[C@H](C)NC(=O)[C@H](CCCCN)NC(=O)[C@H](CC(C)C)NC(=O)[C@H](CCCCN)NC(=O)[C@H](C)NC(=O)[C@H](CC(C)C)NC(=O)[C@H](CCCCN)NC(=O)[C@H](CCC(N)=O)NC(=O)[C@@H](N)CCCCN)C(N)=O — MIC (Salmonella enterica; broth microdilution; ATCC 700720; 24 h): 6.2 µM
